Measurements of several laboratories.
Each numbered part is a random draw from the data of one study; scales do not carry over between parts.

Study 1
Target: Interferon regulatory factor 7, full length, phosphomimetic (IRF7, Homo sapiens, UniProt Q92985, residues 1-503, S101K/S471D/S472D/S475D/S476D/S477D/S483D/S484D/S487D)
Technique: protein-binding microarray
Form: double-stranded DNA, one strand shown
Matrix: in vitro
Tested at: 250 nM
Setting: 60-bp whole probe
Together with: salmon DNA 0.4 mg/ml
Baseline: random background probes
Direction: higher = stronger binding
All sequences stand within: GCCTAGCAC … GTCTTGATTCGCTTGACGCTGCTG
Target sequence (chain): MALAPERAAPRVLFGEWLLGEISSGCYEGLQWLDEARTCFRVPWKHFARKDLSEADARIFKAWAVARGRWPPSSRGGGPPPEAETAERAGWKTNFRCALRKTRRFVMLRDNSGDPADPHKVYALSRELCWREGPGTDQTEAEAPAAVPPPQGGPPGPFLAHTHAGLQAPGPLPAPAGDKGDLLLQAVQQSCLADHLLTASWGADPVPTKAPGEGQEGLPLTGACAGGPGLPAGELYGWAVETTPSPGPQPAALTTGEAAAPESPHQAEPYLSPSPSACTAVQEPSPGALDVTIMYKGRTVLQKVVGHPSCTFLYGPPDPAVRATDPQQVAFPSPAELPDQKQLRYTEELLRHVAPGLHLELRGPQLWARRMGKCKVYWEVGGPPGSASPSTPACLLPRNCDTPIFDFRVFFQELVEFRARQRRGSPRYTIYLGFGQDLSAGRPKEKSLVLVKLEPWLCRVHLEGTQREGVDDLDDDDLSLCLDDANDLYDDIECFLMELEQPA
`GACGATATCGGGTATCGGGACGTGCTA` has a log fluorescence of -0.0116 z-score.
With `TTAGGTTTCCTTTCCCGTTAGTGCTAG` the log fluorescence was 4.83 z-score.
The log fluorescence of `TCATTTTTGCAAGCTAAAACTGTGCTA` is reported as 0.575 z-score.
The log fluorescence of `TTTTATTTATAAATTATCTTGTGCTAG` is reported as 0.392 z-score.
`GGTAGGCGGGGCCCCTGGCCGTGCTAG` gave a log fluorescence of -0.362 z-score.
`GTCGATTTCAGTCTCGAGACGTGCTAG` gave a log fluorescence of 1.73 z-score.
For `GACGATATCTGTATCGAGACGTGCTAG`, the log fluorescence was -0.00325 z-score.
For `CATTTTCTCTGTTCTAGAAGGTGCTAG`, the log fluorescence was 3.72 z-score.
For `TCACAGCTATTTTTAGGACTGTGCTAG`, the log fluorescence was -0.433 z-score.
`TTAGGTTCCCTTCTCCTTTAGTGCTAG` has a log fluorescence of 2.12 z-score.
With `TTAGGTTTCGGGACTAGGTTAGTGCTA` the log fluorescence was 3.83 z-score.
`CACTCTCTACATGTGTTTACGTGCTAG` gave a log fluorescence of 0.699 z-score.

Study 2
Target: Ras GTPase-activating protein-binding protein 1, full length (G3BP1, Homo sapiens, UniProt Q13283)
UniProt Q13283, sequence (whole entry, looked up): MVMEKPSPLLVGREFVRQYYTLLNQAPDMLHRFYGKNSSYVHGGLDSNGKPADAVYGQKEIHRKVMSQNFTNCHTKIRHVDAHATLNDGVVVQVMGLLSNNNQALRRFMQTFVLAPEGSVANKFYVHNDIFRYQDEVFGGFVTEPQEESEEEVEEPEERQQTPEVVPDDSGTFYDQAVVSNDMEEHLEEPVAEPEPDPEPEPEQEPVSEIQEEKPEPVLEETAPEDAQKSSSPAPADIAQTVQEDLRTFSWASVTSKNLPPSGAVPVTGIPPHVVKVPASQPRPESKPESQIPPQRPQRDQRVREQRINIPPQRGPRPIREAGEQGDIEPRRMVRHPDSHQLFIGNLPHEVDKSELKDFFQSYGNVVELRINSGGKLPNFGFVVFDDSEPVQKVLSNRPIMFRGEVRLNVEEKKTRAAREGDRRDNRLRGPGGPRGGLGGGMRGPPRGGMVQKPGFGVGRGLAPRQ
Technique: RNA Bind-n-Seq
Form: RNA
Matrix: in vitro
Tested at: 200 nM
Setting: whole 134-nt RNA, ends assumed
Together with: 150 mM KCl
Baseline: input library
Direction: higher = stronger binding
With `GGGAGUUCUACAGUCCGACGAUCUGGACGAUGAAGAGGAAACAAUUGAAGAGGAGGAAGCAAAUGAAGGCGUUGUGGACCACCAAACAGAACUUUCUAAUUUAGCCAAGGAAGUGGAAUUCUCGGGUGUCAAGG` the log2 enrichment was 0.436.
`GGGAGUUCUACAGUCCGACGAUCGUCCUGUGCUACACAUCGUAUGUACCGAAUCGGGGUGGGGAAAGGGGAAAAAAAGGGGAAAGUAUUAUGUUACGCCGUUCGGAUCUGCACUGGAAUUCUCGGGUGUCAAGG` gave a log2 enrichment of 0.437.
For `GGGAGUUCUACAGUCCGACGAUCUCCUGUGCUACACAUCGUAUGUACCGAAUCGGGGAAAAAGGGGUUUUUGGGGAAAGGGGAAAGUAUUAUGUUACGCCGUUCGGAUCUGCAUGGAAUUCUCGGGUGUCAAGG`, the log2 enrichment was 0.934.
`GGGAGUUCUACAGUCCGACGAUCAGUCCUGUGCUACACAUCGUAUGUACCGAAUCGGGAAAAAGGGAGGGUUUUUUUGGGAAAGUAUUAUGUUACGCCGUUCGGAUCUGCACUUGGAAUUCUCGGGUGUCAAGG` has a log2 enrichment of 0.0745.
`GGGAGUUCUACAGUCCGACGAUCGUCCUGUGCUACACAUCGUAUGUACCGAAUCGGAAAAAAAGGUUUUUGGUUUUUUUGGAAAGUAUUAUGUUACGCCGUUCGGAUCUGCACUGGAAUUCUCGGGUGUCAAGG` gave a log2 enrichment of -1.73.
With `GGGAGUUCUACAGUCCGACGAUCAGUCCUGUGCUACACAUCGUAUGUACCGAAUCGGUUUUUGGUUUUUUUGGUUUUUGGAAAGUAUUAUGUUACGCCGUUCGGAUCUGCACUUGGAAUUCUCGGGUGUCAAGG` the log2 enrichment was -1.33.
With `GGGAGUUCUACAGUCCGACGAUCCACAGACAACACGCACCCACACAGACACAGAGGGAAGGGGUUGGGAUGGGGACAGGGUGCACAGCAGGGCGGGGUAGGACCCCAAACCCUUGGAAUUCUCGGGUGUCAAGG` the log2 enrichment was 1.97.
`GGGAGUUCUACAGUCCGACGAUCUCAAGUCCUGUGCUACACAUCGUAUGUACCGAAUCGGGAAAGGAAAGGAAAGGGGAAAGUAUUAUGUUACGCCGUUCGGAUCUGCACUUCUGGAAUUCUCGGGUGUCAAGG` gave a log2 enrichment of -0.647.
The log2 enrichment of `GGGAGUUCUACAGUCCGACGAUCUGGGAGGUGGAUUUUGUUUAUUUUUUUAGCUCAUUUCCAGGGGUGGGAAUUUUUUUUUAAUAUGUGUCAGGAAUAAAGUUGUUUUUGAAAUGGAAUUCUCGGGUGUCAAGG` is reported as 0.365.

Study 3
Target: Prothrombin, mature alpha-thrombin (F2, Homo sapiens, UniProt P00734)
Technique: aptamer microarray, sandwich
Form: DNA with 2'F-ANA
Matrix: in vitro
Tested at: 200 nM
Setting: whole 15-mer aptamer, many near background
Together with: Cy3 exosite-II aptamer, 400 nM
Direction: higher = stronger binding
Oligonucleotide: GGTTGGTGTGGTTGG
For `2'F-ANA at 1 4 5 6 12 13 15`, “mean fluorescence intensity” read 73.7 a.u.
`2'F-ANA at 4 6 7 8 11`: “mean fluorescence intensity” 295 a.u.
`2'F-ANA at 2 4 12 14` — result for “mean fluorescence intensity”: 198 a.u.
`2'F-ANA at 1 2 3 4 5 7 10 11 14 15` — result for “mean fluorescence intensity”: 48.9 a.u.
For `2'F-ANA at 3 6 8 9 10 12`, “mean fluorescence intensity” read 601 a.u.
`2'F-ANA at 1 2 5 6 12 14 15`: “mean fluorescence intensity” 48.9 a.u.
Under “mean fluorescence intensity”, `2'F-ANA at 1 2 3 5 8 9 13 15` is recorded as 52.8 a.u.
For `2'F-ANA at 2 5 6 7 8 9 12 13 15`, “mean fluorescence intensity” read 103 a.u.
Under “mean fluorescence intensity”, `2'F-ANA at 2 3 4 8 10 11 12 13 14` is recorded as 161 a.u.
Under “mean fluorescence intensity”, `2'F-ANA at 1 2 3 5 8 11 12 13 15` is recorded as 94.6 a.u.
`2'F-ANA at 1 3 5 11 14 15`: “mean fluorescence intensity” 53.8 a.u.
For `2'F-ANA at 1 4 5 6 7 8 13 15`, “mean fluorescence intensity” read 48.4 a.u.
`2'F-ANA at 2 4 5 6 8 10 11 12`: “mean fluorescence intensity” 51.8 a.u.
For `2'F-ANA at 1 2 3 4 5 6 8 9 10 11 13 14 15`, “mean fluorescence intensity” read 54.2 a.u.

Further values, each from its own experiment
For `PhoQ, residues 284 288 289 292 302 303 WVSSAF`, the fold induction was 6.69 (PhoP, residues 12 14 15 18 19 GQALL (Escherichia coli, UniProt P23836); Sort-seq, item: YFP reporter; E. coli; PhoQ-PhoP variant library, together with: 10 µM Mg2+; baseline: high Mg2+ state, higher = stronger signaling).
